Measured values pooled from the literature.
Numbers after ± are the reported error.
Sequence of UniProt P25105 (whole entry, looked up): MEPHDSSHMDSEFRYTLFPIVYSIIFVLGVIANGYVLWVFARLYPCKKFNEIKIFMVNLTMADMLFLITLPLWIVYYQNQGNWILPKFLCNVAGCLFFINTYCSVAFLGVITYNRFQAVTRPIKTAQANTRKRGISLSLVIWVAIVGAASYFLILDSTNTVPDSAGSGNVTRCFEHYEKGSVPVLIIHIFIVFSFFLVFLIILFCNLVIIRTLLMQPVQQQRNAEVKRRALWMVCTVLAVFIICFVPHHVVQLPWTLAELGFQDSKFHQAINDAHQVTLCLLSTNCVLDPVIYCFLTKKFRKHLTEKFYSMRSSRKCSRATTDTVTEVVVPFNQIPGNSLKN
Sequence of UniProt Q8XFG0 (whole entry, looked up): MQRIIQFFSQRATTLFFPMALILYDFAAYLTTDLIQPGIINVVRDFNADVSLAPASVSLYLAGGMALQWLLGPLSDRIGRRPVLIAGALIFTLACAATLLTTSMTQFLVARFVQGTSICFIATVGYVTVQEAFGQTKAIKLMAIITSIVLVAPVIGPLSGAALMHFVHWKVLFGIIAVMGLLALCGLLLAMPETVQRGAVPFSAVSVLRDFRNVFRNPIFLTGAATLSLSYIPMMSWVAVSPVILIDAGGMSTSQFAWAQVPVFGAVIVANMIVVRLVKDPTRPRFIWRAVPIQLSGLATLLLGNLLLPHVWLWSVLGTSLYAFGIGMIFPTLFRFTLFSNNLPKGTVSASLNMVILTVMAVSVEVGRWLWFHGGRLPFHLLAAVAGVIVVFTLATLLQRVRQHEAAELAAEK
Sequence of UniProt O43684 (whole entry, looked up): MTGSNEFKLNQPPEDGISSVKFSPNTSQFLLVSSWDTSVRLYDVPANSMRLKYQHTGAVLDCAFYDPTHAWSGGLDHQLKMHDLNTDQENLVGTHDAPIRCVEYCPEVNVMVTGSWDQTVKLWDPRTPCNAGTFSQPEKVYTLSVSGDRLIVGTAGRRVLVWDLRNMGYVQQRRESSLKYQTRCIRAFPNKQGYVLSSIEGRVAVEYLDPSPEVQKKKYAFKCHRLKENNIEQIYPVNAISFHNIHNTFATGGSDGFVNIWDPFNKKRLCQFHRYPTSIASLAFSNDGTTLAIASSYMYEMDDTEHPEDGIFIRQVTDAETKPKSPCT
Sequence of UniProt Q8NET8 (whole entry, unmodified, looked up): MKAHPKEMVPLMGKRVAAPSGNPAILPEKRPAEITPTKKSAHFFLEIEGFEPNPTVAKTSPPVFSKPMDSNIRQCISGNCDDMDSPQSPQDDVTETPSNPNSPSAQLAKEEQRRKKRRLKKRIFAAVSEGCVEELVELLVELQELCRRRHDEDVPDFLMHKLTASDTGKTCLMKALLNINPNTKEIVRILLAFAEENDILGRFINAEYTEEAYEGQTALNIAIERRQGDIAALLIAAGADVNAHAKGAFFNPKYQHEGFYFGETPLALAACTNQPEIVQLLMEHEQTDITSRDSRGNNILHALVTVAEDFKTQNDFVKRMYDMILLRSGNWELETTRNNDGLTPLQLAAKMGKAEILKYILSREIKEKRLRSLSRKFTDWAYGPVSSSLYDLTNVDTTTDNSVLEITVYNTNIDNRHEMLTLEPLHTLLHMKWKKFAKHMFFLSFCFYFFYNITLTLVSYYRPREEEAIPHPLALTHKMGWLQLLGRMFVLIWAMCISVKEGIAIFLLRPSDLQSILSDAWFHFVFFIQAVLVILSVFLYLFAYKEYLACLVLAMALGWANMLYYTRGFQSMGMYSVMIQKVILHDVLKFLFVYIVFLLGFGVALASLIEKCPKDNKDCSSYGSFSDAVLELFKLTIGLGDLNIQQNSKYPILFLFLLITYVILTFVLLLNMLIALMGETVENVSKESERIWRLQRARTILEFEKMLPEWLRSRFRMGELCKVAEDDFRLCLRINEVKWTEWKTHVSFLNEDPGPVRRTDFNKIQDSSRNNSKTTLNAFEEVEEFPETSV
Sequence of UniProt P33533 (whole entry, looked up): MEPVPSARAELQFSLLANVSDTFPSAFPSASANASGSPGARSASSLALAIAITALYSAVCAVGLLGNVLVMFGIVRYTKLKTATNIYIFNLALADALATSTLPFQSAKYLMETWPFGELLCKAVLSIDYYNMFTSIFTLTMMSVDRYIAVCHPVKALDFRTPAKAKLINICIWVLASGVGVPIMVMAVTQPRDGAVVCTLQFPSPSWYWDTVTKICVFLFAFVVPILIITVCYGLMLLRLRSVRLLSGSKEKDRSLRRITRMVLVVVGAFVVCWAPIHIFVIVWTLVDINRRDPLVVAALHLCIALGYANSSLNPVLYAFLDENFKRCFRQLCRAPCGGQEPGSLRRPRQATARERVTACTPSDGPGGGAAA
Sequence of UniProt P49116 (whole entry, looked up): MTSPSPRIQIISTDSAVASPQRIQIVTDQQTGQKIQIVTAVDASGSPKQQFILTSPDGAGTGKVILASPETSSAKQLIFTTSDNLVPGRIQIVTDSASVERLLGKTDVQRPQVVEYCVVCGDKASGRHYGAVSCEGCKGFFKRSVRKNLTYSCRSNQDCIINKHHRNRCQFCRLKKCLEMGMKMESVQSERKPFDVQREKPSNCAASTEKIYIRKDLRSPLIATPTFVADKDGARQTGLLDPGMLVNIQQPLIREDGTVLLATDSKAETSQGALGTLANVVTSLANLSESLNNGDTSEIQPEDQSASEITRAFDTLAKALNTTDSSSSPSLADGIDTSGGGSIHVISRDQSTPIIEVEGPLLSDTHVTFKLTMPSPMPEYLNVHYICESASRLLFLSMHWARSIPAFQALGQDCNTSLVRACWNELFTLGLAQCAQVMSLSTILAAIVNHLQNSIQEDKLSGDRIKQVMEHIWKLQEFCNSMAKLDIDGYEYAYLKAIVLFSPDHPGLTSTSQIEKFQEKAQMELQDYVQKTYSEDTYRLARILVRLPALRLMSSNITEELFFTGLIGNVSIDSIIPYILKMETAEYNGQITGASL
Sequence of UniProt P23977 (whole entry, looked up): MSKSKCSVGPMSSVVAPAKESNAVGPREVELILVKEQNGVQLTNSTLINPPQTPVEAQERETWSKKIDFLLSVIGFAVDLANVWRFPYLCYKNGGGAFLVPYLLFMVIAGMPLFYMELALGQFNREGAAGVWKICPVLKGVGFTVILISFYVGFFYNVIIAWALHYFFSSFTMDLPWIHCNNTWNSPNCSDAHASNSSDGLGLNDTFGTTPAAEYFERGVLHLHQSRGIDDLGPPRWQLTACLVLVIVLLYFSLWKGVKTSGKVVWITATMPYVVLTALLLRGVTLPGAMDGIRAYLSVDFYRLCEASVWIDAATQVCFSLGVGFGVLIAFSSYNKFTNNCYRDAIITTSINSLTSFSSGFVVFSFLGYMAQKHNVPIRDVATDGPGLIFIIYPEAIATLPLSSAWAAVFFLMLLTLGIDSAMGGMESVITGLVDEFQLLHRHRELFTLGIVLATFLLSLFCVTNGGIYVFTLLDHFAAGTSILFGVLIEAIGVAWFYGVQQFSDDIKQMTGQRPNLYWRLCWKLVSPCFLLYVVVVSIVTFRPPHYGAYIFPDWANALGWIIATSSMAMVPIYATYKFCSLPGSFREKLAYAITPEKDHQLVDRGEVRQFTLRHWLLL

| Structure (SMILES) | tested on | assay | system | setting | scale | endpoint | result |
| --- | --- | --- | --- | --- | --- | --- | --- |
| CC[C@H](C)[C@@H]1NC(=O)[C@@H]2CCCN2C(=O)[C@H](CC(C)C)NC(=O)[C@H](CC(C)C)NC(=O)CNC(=O)[C@@H](NC(=O)[C@@H](NC(=O)[C@H](CC(=O)O)NC(=O)CNC(=O)[C@@H](NC(=O)[C@H](C)NC(=O)CNC(=O)[C@H](CCCCN)NC(=O)[C@H](CC(C)C)NC(=O)[C@H](CC(C)C)NC(=O)[C@H](CCCCN)NC(=O)CNC(=O)[C@@H](NC(=O)[C@@H](N)CC(C)C)C(C)C)C(C)C)C(C)C)CSSC[C@@H](C(=O)O)NC1=O |  | RNA-seq, item: Prss30 mRNA | mouse traumatic brain injury, frontal cortex and hippocampus | dose not given | reference: TBI plus compound vs TBI | log2 fold change | -2.24 |
| CCCCCCCC[C@H]1O[C@H]1C/C=C/C=C/[C@H](O)CC(=O)NC1=C[C@](C)(CC)OC1=O | Na(+)-translocating NADH-quinone reductase subunit B, whole Na+-NQR complex (nqrB, Vibrio cholerae serotype O1, UniProt Q9KPS2, R151D) | enzyme activity, inhibitor |  | NqrB-R151D mutant |  | IC50 | < 10 nM |
| CNC(C)C(=O)c1ccc2c(c1)OCO2 (stereo not shown) | Sodium-dependent dopamine transporter (Slc6a3, Rattus norvegicus, UniProt P23977) |  |  | rat |  | IC50 | 1080 ± 60 nM |
| CCCc1cc(O)c2c(c1)OC(C)(C)[C@@H]1CCC(C)=C[C@@H]21 | Transient receptor potential cation channel subfamily V member 3 (TRPV3, Homo sapiens, UniProt Q8NET8, L420A) | calcium uptake, agonist | HEK293S | mutant L420A, site 3 |  | EC50 | 2660 ± 150 nM |
| CC(NC(C)(C)C)C(=O)c1cccc(Cl)c1 (stereo not shown) | Nuclear receptor subfamily 2 group C member 2, ligand-binding domain (Homo sapiens, UniProt P49116) | SPR imaging |  |  |  | Kd | 23.8 nM |
| C[C@H]1CN(c2n[nH]c3nc(N[C@H]4CC[C@H](NS(=O)(=O)CCC(F)(F)F)CC4)ncc23)CCO1 | Mitotic checkpoint protein BUB3 (Homo sapiens, UniProt O43684) | Kinobeads competition, item: BUB3 |  | 0.032 µM, unit not given | reference: vehicle | remaining binding | 1.53 |
| COc1cc(Nc2ncc(F)c(Nc3ccc4c(n3)NC(=O)C(C)(C)O4)n2)cc(OC)c1OC | Platelet-activating factor receptor (PTAFR, Homo sapiens, UniProt P25105) |  |  |  |  | IC50 | > 10000 nM |
| C#CC[C@@H](N)C(=O)N[C@H](CCC(N)=O)C(=O)NCC(=O)N[C@H](CC(C)C)C(=O)NCC(=O)N[C@H](CC)C(=O)N[C@H](CC(=O)O)C(=O)N[C@H](CCC(=O)O)C(=O)N[C@H](CC(N)=O)C(=O)N[C@H](CC(C)C)C(=O)N[C@H](CCC(N)=O)C(=O)NCC(=O)N[C@H](Cc1ccccc1)C(=O)N[C@H](C)C(=O)N[C@@H](C(=O)N[C@H](C)C(=O)N[C@@H](C(=O)N[C@H](CCCCN)C(=O)N[C@H](CCSC)C(=O)NCC(=O)N[C@H](C)C(=O)N[C@H](Cc1ccc(O)cc1)C(=O)N[C@H](CCCCN)C(=O)N[C@H](C)C(=O)N[C@H](Cc1c[nH]c2ccccc12)C(=O)O)C(C)C)C(C)C | hemagglutinin influenza A/California/07/2009 H1N1 |  |  |  |  | Ki | > 58000 nM |
| O=C(Cc1ccc(I)cc1)N[C@H]1CCOC1=O | expR (Pectobacterium carotovorum, UniProt Q4KS34) |  |  |  |  | IC50 | 700 nM |
| Oc1cccc([C@]23CCC[C@H]([C@H]2O)N(CC=Cc2ccccc2)CC3)c1 | Delta-type opioid receptor (Oprd1, Rattus norvegicus, UniProt P33533) | displacement | rat brain homogenate | together with: [3H]DADLE 1 nM, DAMGO 30 nM |  | Ki | 17.8 ± 1.35 nM |
| [H]/N=C(/N)N[C@H]1[C@H](O)[C@@H](O)[C@H](O[C@@H]2O[C@@H](C)[C@](O)(C=O)[C@H]2O[C@@H]2O[C@@H](CO)[C@H](O)[C@@H](O)[C@@H]2NC)[C@@H](N/C(N)=N\[H])[C@@H]1O | Multidrug resistance protein MdtM (mdtM, Salmonella typhi, UniProt Q8XFG0) |  |  |  |  | Kd | 20 ± 4 nM |
| CC[C@@H](NC(=O)CNC(=O)[C@@H](Cc1ccccc1)NC(=O)CNC(=O)[C@H](N)CCC(N)=O)C(=O)N[C@H](CC(=O)O)C(=O)N[C@H](CCC(=O)O)C(=O)N[C@H](CCSC)C(=O)N[C@H](CC(C)C)C(=O)N[C@H](CCC(N)=O)C(=O)NCC(=O)N[C@H](Cc1ccccc1)C(=O)N[C@H](C)C(=O)N[C@@H](C(=O)N[C@H](C)C(=O)N[C@H](CC)C(=O)N[C@H](CCCCN)C(=O)N[C@H](CCSC)C(=O)NCC(=O)N[C@H](C)C(=O)N[C@H](Cc1ccc(O)cc1)C(=O)N[C@H](CCCCN)C(=O)N[C@H](C)C(=O)N[C@H](CC(=O)O)C(=O)O)C(C)C | hemagglutinin influenza A/California/07/2009 H1N1 |  |  |  |  | Ki | 6000 nM |
| CO[C@H]1C[C@@H]2CC[C@@H](C)[C@@](O)(O2)C(=O)C(=O)N2CCCC[C@H]2C(=O)O[C@H]([C@H](C)C[C@@H]2CC[C@@H](OC(=O)NCCOCCOCCOCCOCCOCCOCCOCCOCCC(=O)N3CCc4cc(Cn5nc(-c6ccc7oc(N)nc7c6)c6c(N)ncnc65)ccc4C3)[C@H](OC)C2)C[C@@H](O)[C@H](C)/C=C(\C)[C@@H](O)[C@@H](OC)C(=O)[C@H](C)C[C@H](C)/C=C/C=C/C=C/1C |  | phase 1 dose escalation, item: fatigue | advanced solid tumour patients | intravenous, 12 mg weekly, any grade |  | TRAE incidence | 41.7% |

A few entries again:
| Structure (SMILES) | tested on | assay | system | setting | scale | endpoint | result |
| --- | --- | --- | --- | --- | --- | --- | --- |
| C#CC[C@@H](N)C(=O)N[C@H](CCC(N)=O)C(=O)NCC(=O)N[C@H](CC(C)C)C(=O)NCC(=O)N[C@H](CC)C(=O)N[C@H](CC(=O)O)C(=O)N[C@H](CCC(=O)O)C(=O)N[C@H](CC(N)=O)C(=O)N[C@H](CC(C)C)C(=O)N[C@H](CCC(N)=O)C(=O)NCC(=O)N[C@H](Cc1ccccc1)C(=O)N[C@H](C)C(=O)N[C@@H](C(=O)N[C@H](C)C(=O)N[C@@H](C(=O)N[C@H](CCCCN)C(=O)N[C@H](CCSC)C(=O)NCC(=O)N[C@H](C)C(=O)N[C@H](Cc1ccc(O)cc1)C(=O)N[C@H](CCCCN)C(=O)N[C@H](C)C(=O)N[C@H](Cc1c[nH]c2ccccc12)C(=O)O)C(C)C)C(C)C | hemagglutinin influenza A/California/07/2009 H1N1 |  |  |  |  | Ki | > 58000 nM |
| C[C@H]1CN(c2n[nH]c3nc(N[C@H]4CC[C@H](NS(=O)(=O)CCC(F)(F)F)CC4)ncc23)CCO1 | Mitotic checkpoint protein BUB3 (Homo sapiens, UniProt O43684) | Kinobeads competition, item: BUB3 |  | 0.032 µM, unit not given | reference: vehicle | remaining binding | 1.53 |
